{"data": "Published values collected from several papers", "note": "Each line is one published result; not all experiments were run side by side. ± marks the error that the study gave.", "sequence of UniProt P41145 (whole entry, looked up)": "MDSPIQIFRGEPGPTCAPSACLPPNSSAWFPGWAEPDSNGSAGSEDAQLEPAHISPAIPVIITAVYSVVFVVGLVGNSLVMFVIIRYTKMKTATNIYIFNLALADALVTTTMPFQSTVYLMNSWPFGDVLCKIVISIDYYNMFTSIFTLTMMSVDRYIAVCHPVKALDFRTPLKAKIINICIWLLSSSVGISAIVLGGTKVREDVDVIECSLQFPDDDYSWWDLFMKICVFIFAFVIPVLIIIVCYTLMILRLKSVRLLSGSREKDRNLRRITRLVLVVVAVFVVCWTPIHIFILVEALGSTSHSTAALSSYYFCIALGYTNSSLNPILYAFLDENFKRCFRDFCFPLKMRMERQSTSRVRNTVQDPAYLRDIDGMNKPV", "sequence of UniProt P41143 (whole entry, looked up)": "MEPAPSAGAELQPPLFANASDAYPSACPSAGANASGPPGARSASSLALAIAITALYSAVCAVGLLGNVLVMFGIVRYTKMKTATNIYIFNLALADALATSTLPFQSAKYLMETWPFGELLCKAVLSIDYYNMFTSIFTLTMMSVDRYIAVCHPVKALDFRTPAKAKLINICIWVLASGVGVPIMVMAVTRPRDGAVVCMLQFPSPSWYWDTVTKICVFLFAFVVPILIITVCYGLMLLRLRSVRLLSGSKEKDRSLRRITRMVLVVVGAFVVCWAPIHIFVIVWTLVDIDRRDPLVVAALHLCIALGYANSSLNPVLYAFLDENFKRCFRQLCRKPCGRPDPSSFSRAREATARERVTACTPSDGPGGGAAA"}
{"SMILES": "CC[C@H](C)[C@H](NC(=O)[C@H](CCCN)NC(=O)[C@H](CC(=O)O)NC(=O)[C@H](CC(C)C)NC(=O)C(C)(CC(C)C)NC(=O)[C@@H](NC(=O)[C@H](CO)NC(=O)[C@H](Cc1ccc(O)cc1)NC(=O)[C@H](CC(=O)O)NC(=O)[C@H](CO)NC(=O)[C@@H](NC(=O)[C@H](Cc1ccccc1)NC(=O)[C@@H](NC(=O)CNC(=O)[C@H](CCC(=O)O)NC(=O)C(C)(C)NC(=O)[C@@H](N)Cc1ccc(O)cc1)[C@@H](C)O)[C@@H](C)CC)[C@@H](C)CC)C(=O)N[C@@H](Cc1c[nH]cn1)C(=O)N[C@@H](CCC(N)=O)C(=O)NC(C)(C)C(=O)N[C@@H](CC(=O)O)C(=O)N[C@@H](Cc1ccccc1)C(=O)N[C@H](C(=O)N[C@@H](CCC(=O)O)C(=O)N[C@@H](Cc1ccc(O)cc1)C(=O)N[C@@H](CCCCNC(=O)COCCOCCNC(=O)COCCOCCNC(=O)CC[C@H](NC(=O)CCCCCCCCCCCCCCCCCCC(=O)O)C(=O)O)C(=O)N[C@@H](CC(C)C)C(=O)N[C@@H](CCC(=O)O)C(=O)NCC(=O)NCC(=O)N1CCC[C@H]1C(=O)N[C@@H](CO)C(=O)N[C@@H](CO)C(=O)NCC(=O)N[C@@H](C)C(=O)N1CCC[C@H]1C(=O)N1CCC[C@H]1C(=O)N1CCC[C@H]1C(=O)N[C@@H](CO)C(N)=O)C(C)C (stereo partly shown)", "test system": "human, type 2 diabetes", "conditions": "12 mg weekly, day 29, 4 weeks dosing", "how to read": "baseline: placebo", "quantity": "fasting glucose change", "result": "-1.13 mmol/L"}
{"SMILES": "COCCCCCCn1ccn2cc(C(=O)NCc3ccc(F)cc3F)c(=O)c(O)c2c1=O", "tested on": "human immunodeficiency virus 1", "test": "single-round vector infection", "test system": "integrase N155H", "quantity": "EC50", "result": "15 ± 1.6 nM"}
{"SMILES": "CC[C@H](C)[C@H](NC(=O)[C@H](C)NC(=O)[C@@H](NC(=O)[C@@H](NC(=O)[C@H](CC(C)C)NC(=O)[C@H](CCCCN)NC(=O)[C@@H](N)CCCCN)[C@@H](C)CC)[C@@H](C)O)C(=O)N[C@@H](CC(C)C)C(=O)N[C@@H](CCCCN)C(=O)N[C@@H](CCCCN)C(=O)N[C@H](C(=O)N[C@@H](CCCNC(=N)N)C(=O)N[C@@H](CCC(=O)O)C(=O)N[C@@H](CCCCN)C(=O)N[C@@H](CCCCN)C(=O)N[C@@H](CCCCN)C(=O)N[C@@H](CCC(=O)O)C(=O)N[C@@H](CS)C(=O)N[C@@H](CC(C)C)C(=O)N[C@H](C(=O)O)C(C)C)[C@@H](C)O", "tested on": "TTX-sensitive sodium channel", "test": "resurgent sodium current, open-channel blocker, whole-cell patch clamp", "test system": "mouse hippocampal CA3 neurons", "conditions": "200 µM intracellular, 22 °C", "quantity": "time to peak", "result": "1.2 ± 0.2 ms"}
{"SMILES": "CC(C)C[C@H](NC(=O)[C@H](CO)NC(=O)[C@H](CCCCN)NC(=O)[C@H](CC(C)C)NC(=O)CNC(=O)[C@H](CCCCN)NC(=O)[C@H](CCC(=O)O)NC(=O)[C@H](C)NC(=O)[C@H](CC(C)C)NC(=O)[C@H](CC(N)=O)NC(=O)[C@@H]1CCCN1C(=O)[C@H](CC(C)C)NC(=O)[C@H](Cc1ccccc1)NC(=O)CNC(=O)[C@H](NC(=O)[C@@H](N)Cc1ccc(O)cc1)[C@H](C)O)C(N)=O", "tested on": "Kappa-type opioid receptor (OPRK1, Homo sapiens, UniProt P41145)", "test": "ligand displacement, radioligand", "conditions": "pH 7.5, cell membranes", "quantity": "Ki", "result": "15 nM"}
{"SMILES": "C[C@@H]1Cc2ccc(C(=O)N[C@@H](Cc3ccccc3)C(=O)O)c(O)c2C(=O)O1", "tested on": "HK-2", "test": "cell growth or viability, SRB", "conditions": "24 h", "quantity": "IC50", "result": "37900 nM"}
{"SMILES": "CC(C)C[C@H](NC(=O)[C@H](CO[C@@H]1O[C@H](CO)[C@@H](O[C@@H]2O[C@H](CO)[C@H](O)[C@H](O)[C@H]2O)[C@H](O)[C@H]1O)NC(=O)[C@H](CCCCN)NC(=O)[C@H](CC(C)C)NC(=O)C(C)(C)NC(=O)[C@H](CCCCN)NC(=O)[C@H](CCC(=O)O)NC(=O)C(C)(C)NC(=O)[C@H](CC(C)C)NC(=O)[C@H](CC(N)=O)NC(=O)[C@@H]1CCCN1C(=O)[C@H](CC(C)C)NC(=O)[C@H](Cc1ccccc1)NC(=O)CNC(=O)[C@H](NC(=O)[C@@H](N)Cc1ccc(O)cc1)[C@H](C)O)C(N)=O", "tested on": "Delta-type opioid receptor (OPRD1, Homo sapiens, UniProt P41143)", "test": "ligand displacement, radioligand", "conditions": "pH 7.5, cell membranes", "quantity": "Ki", "result": "35 nM"}
{"SMILES": "Nc1ncnc2c1ncn2C1CCC(OC(C(=O)O)P(=O)(O)O)C1 (racemic)", "tested on": "HIV-1 reverse transcriptase F61A", "test": "enzyme activity, inhibitor", "conditions": "added: poly(rU)·oligo(dA), [3H]dATP", "how to read": "baseline: mutant over wild type", "quantity": "fold resistance", "result": "3.9 fold"}
{"SMILES": "O=C(NCc1ccc(F)cc1F)c1cn2c(c(O)c1=O)C(=O)N(CCCCO)CC2", "tested on": "human immunodeficiency virus 1", "test": "single-round vector infection", "test system": "integrase G140S/Q148H", "quantity": "EC50", "result": "1100 ± 11.2 nM"}
{"SMILES": "CC[C@H](C)[C@H](NC(=O)[C@H](CCCCN)NC(=O)[C@H](CCCCN)NC(=O)[C@H](CC(C)C)NC(=O)[C@H](Cc1c[nH]c2ccccc12)NC(=O)CN)C(=O)NCC(=O)N[C@@H](CCCCN)C(=O)N[C@@H](CCCCN)C(=O)N[C@H](C(=O)N[C@@H](CCC(=O)O)C(=O)N[C@@H](CCCNC(=N)N)C(=O)N[C@H](C(=O)NCC(=O)N[C@@H](CCC(N)=O)C(=O)N[C@@H](Cc1c[nH]cn1)C(=O)N[C@H](C(=O)N[C@@H](CCCNC(=N)N)C(=O)N[C@@H](CC(=O)O)C(=O)N[C@@H](C)C(=O)N[C@H](C(=O)N[C@H](C(=O)N[C@@H](CCC(N)=O)C(=O)N[C@H](C(=O)N[C@H](C(=O)NCC(=O)N[C@H](C(=O)N[C@@H](C)C(=O)N[C@@H](CCC(N)=O)C(=O)N[C@@H](CCC(N)=O)C(=O)N[C@@H](C)C(=O)N[C@@H](C)C(=O)N[C@@H](CC(N)=O)C(=O)N[C@H](C(=O)N[C@@H](C)C(=O)N[C@@H](C)C(=O)N[C@H](C(=O)N[C@@H](CC(C)C)C(=O)N[C@@H](CCCCN)C(N)=O)[C@@H](C)O)C(C)C)C(C)C)[C@@H](C)CC)[C@@H](C)O)[C@@H](C)CC)[C@@H](C)O)[C@@H](C)O)C(C)C)[C@@H](C)CC", "tested on": "Klebsiella pneumoniae", "test system": "DSM 30104, CAMHB with 10% mouse serum", "quantity": "MIC", "result": "0.5 µg/mL"}
{"SMILES": "Cc1cc(/C=C/C#N)cc(C)c1Nc1nc(Nc2ccc(C#N)cc2)ncc1N", "tested on": "HIV-1", "test": "viral replication, single-round infection", "test system": "RT mutant E138K/M184I", "quantity": "EC50", "result": "2.9 ± 0.6 nM"}
{"SMILES": "CC[C@H](C)[C@H](NC(=O)[C@H](CC(C)C)NC(=O)[C@H](Cc1c[nH]c2ccccc12)NC(=O)[C@H](CCC(N)=O)NC(=O)[C@@H](NC(=O)[C@H](Cc1ccccc1)NC(=O)[C@H](C)NC(=O)[C@H](CCCCNC(=O)COCCOCCNC(=O)COCCOCCNC(=O)CC[C@H](NC(=O)CCCCCCCCCCCCCCCCCCC(=O)O)C(=O)O)NC(=O)[C@H](CCC(N)=O)NC(=O)[C@H](C)NC(=O)[C@@H](NC(=O)[C@H](CCCCN)NC(=O)[C@H](CC(=O)O)NC(=O)[C@H](CC(C)C)NC(=O)C(C)(C)NC(=O)[C@@H](NC(=O)[C@H](CO)NC(=O)[C@H](Cc1ccc(O)cc1)NC(=O)[C@H](CC(=O)O)NC(=O)[C@H](CO)NC(=O)[C@@H](NC(=O)[C@H](Cc1ccccc1)NC(=O)[C@@H](NC(=O)CNC(=O)[C@H](CCC(=O)O)NC(=O)C(C)(C)NC(=O)[C@@H](N)Cc1ccc(O)cc1)[C@@H](C)O)[C@@H](C)O)[C@@H](C)CC)[C@@H](C)CC)C(C)C)C(=O)N[C@@H](C)C(=O)NCC(=O)NCC(=O)N1CCC[C@H]1C(=O)N[C@@H](CO)C(=O)N[C@@H](CO)C(=O)NCC(=O)N[C@@H](C)C(=O)N1CCC[C@H]1C(=O)N1CCC[C@H]1C(=O)N1CCC[C@H]1C(=O)N[C@@H](CO)C(N)=O", "test system": "DIO male Wistar rats, serum", "conditions": "dose not given, 10 weeks, fasted", "quantity": "AST", "result": "96 ± 9 U/L"}
{"SMILES": "CCCCCCCCCCCCCCCC(=O)N[C@@H](CCC(=O)NCCOCCOCCC(=O)NCCOCCOCCC(=O)NCCCC[C@H](NC(=O)[C@H](CC(=O)O)NC(=O)[C@H](CC(C)C)NC(=O)[C@H](Cc1ccc(O)cc1)NC(=O)[C@H](CCCCN)NC(=O)[C@H](CO)NC(=O)[C@H](Cc1ccc(O)cc1)NC(=O)[C@H](CC(=O)O)NC(=O)[C@H](CO)NC(=O)[C@@H](NC(=O)[C@H](Cc1ccccc1)NC(=O)[C@@H](NC(=O)CNC(=O)[C@H](CCC(N)=O)NC(=O)[C@@H](CO)NC(=O)[C@@H](N)Cc1c[nH]cn1)[C@@H](C)O)[C@@H](C)O)C(=O)N[C@@H](CCCNC(=N)N)C(=O)N[C@@H](CCCNC(=N)N)C(=O)N[C@@H](C)C(=O)N[C@@H](CCC(N)=O)C(=O)N[C@@H](CC(=O)O)C(=O)N[C@@H](Cc1ccccc1)C(=O)N[C@H](C(=O)N[C@@H](CCC(N)=O)C(=O)N[C@@H](Cc1c[nH]c2ccccc12)C(=O)N[C@@H](CC(C)C)C(=O)N[C@@H](CC(C)C)C(=O)N[C@@H](CC(N)=O)C(=O)N[C@H](C(=O)NCC(=O)NCC(=O)N1CCC[C@H]1C(=O)N[C@@H](CO)C(=O)N[C@@H](CO)C(=O)NCC(=O)N[C@@H](C)C(=O)N1CCC[C@H]1C(=O)N1CCC[C@H]1C(=O)N1CCC[C@H]1C(=O)N[C@@H](CO)C(N)=O)[C@@H](C)O)C(C)C)C(=O)O", "test system": "C57BL/6J mouse CCl4 model, liver", "conditions": "dose not given", "quantity": "α-SMA staining", "result": "decreased"}
{"SMILES": "Cc1cc(/C=C/C#N)cc(C)c1-n1cnc2cnc(Nc3ccc(C#N)cc3)nc21", "tested on": "HIV-1", "test": "viral replication, single-round infection", "test system": "RT mutant K101E/M184I", "quantity": "EC50", "result": "0.5 ± 0.3 nM"}
{"note": "Some of these lines once more:"}
{"SMILES": "CC[C@H](C)[C@H](NC(=O)[C@H](CCCCN)NC(=O)[C@H](CCCCN)NC(=O)[C@H](CC(C)C)NC(=O)[C@H](Cc1c[nH]c2ccccc12)NC(=O)CN)C(=O)NCC(=O)N[C@@H](CCCCN)C(=O)N[C@@H](CCCCN)C(=O)N[C@H](C(=O)N[C@@H](CCC(=O)O)C(=O)N[C@@H](CCCNC(=N)N)C(=O)N[C@H](C(=O)NCC(=O)N[C@@H](CCC(N)=O)C(=O)N[C@@H](Cc1c[nH]cn1)C(=O)N[C@H](C(=O)N[C@@H](CCCNC(=N)N)C(=O)N[C@@H](CC(=O)O)C(=O)N[C@@H](C)C(=O)N[C@H](C(=O)N[C@H](C(=O)N[C@@H](CCC(N)=O)C(=O)N[C@H](C(=O)N[C@H](C(=O)NCC(=O)N[C@H](C(=O)N[C@@H](C)C(=O)N[C@@H](CCC(N)=O)C(=O)N[C@@H](CCC(N)=O)C(=O)N[C@@H](C)C(=O)N[C@@H](C)C(=O)N[C@@H](CC(N)=O)C(=O)N[C@H](C(=O)N[C@@H](C)C(=O)N[C@@H](C)C(=O)N[C@H](C(=O)N[C@@H](CC(C)C)C(=O)N[C@@H](CCCCN)C(N)=O)[C@@H](C)O)C(C)C)C(C)C)[C@@H](C)CC)[C@@H](C)O)[C@@H](C)CC)[C@@H](C)O)[C@@H](C)O)C(C)C)[C@@H](C)CC", "tested on": "Klebsiella pneumoniae", "test system": "DSM 30104, CAMHB with 10% mouse serum", "quantity": "MIC", "result": "0.5 µg/mL"}
